Measurements of several laboratories.
Numbered parts are unrelated; each lists some results of a single study. Changes are numbered by the printed parent chain.

Study 1
Target: Interferon regulatory factor 5, full length, phosphomimetic (IRF5, Homo sapiens, UniProt Q13568-2, residues 1-514, S451D/S453D/S456D/S462D)
Technique: protein-binding microarray
Molecule type: double-stranded DNA, one strand shown
Medium: in vitro
Tested at: 940 nM top
Setting: 60-bp whole probe
Added: salmon DNA 0.4 mg/ml
Relative to: random background probes
Direction: higher = stronger binding
All sequences stand within: GCCTAGCAC … GTCTTGATTCGCTTGACGCTGCTG
Sequence	fitted relative affinity
AAAACACTAATTTTCATTTTGTGCTAG	0.478 z-score
TTAGTTCTCGGTCTCGGTTAGTGCTAG	6.78 z-score
TCAATTTCCATTATTGCACTGTGCTAG	0.703 z-score
TTCTAAATATCTTTGTTGAAGTGCTAG	0.277 z-score
GACAATATCAGTCTCGAGACGTGCTAG	1.19 z-score
TTAGGACTGGGTCTCGGTTTGTGCTAG	1.23 z-score
GACGAACTGAGTATTGAGACGTGCTAG	-0.262 z-score
GACGCTATCCTTCTCCTGACGTGCTAG	0.342 z-score
CTAGTTTTACTTTCTATGTCGTGCTAG	2.56 z-score
TCAGCTATACCACTCTTACTGTGCTAG	0.272 z-score
CTTAGCTTGGGTCTGTGCCTGTGCTAG	-0.668 z-score
GACGGTTTCGGTATCGGTACGTGCTAG	13.8 z-score
CTCTGGGGGGTGGGATGAAGGTGCTAG	4.22 z-score
TTAGGTTTCCGTATCGGTTAGTGCTAG	4.63 z-score
GACGCTATCAGTCTCGAGACGTGCTAG	1.18 z-score
TTAGATATCCGTATCGATTAGTGCTAG	1.88 z-score
TTAAATTTCGGGTTTCGATTAGTGCTA	6.01 z-score
GGCGGTATCGGTATCGGGACGTGCTAG	9.22 z-score
GACGATTCCAGTTACGAGACGTGCTAG	0.156 z-score

Study 2
Target: Sal-like protein 4, full length isoform A (SALL4, Homo sapiens, UniProt Q9UJQ4, residues 1-1053)
UniProt Q9UJQ4, sequence (whole entry, looked up): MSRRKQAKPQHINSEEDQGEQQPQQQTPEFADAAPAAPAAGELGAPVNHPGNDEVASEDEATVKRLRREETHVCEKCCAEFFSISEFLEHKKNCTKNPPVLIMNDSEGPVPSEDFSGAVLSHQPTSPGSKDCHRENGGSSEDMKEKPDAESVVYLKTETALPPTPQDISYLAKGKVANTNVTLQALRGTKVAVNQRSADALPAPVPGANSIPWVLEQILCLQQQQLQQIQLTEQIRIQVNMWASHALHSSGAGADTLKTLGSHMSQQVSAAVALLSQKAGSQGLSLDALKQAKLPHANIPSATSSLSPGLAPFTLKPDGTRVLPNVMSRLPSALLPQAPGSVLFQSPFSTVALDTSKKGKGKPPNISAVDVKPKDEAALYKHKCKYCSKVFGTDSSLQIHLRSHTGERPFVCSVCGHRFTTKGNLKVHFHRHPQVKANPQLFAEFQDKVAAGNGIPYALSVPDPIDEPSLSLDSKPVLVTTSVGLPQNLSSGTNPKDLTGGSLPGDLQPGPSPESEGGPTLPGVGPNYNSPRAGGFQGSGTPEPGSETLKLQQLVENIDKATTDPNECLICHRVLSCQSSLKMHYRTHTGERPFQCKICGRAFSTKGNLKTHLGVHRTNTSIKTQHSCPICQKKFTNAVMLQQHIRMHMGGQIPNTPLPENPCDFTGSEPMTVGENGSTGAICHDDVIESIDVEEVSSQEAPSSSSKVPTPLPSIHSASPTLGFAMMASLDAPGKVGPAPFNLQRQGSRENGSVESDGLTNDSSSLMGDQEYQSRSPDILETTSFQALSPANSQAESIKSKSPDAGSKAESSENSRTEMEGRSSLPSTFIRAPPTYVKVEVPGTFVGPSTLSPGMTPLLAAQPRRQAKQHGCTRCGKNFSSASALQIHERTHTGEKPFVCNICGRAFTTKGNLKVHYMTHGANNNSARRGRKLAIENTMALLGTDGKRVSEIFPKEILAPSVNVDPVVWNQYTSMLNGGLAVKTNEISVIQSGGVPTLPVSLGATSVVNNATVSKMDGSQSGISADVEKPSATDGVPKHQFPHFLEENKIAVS
Technique: universal PBM
Molecule type: double-stranded DNA, one strand shown
Medium: in vitro
Tested at: 600 nM
Setting: 8-mer, flanks averaged, mean of replicates
Direction: higher = stronger binding
Sequence	E-score
CATAGGGC	-0.222
CCTCGGCC	-0.301
GAGTTTAA	0.136
CGAGAGCG	-0.286
CTGGCCGC	-0.212
CGGTCTGA	-0.152
TTGGCAAA	0.223
GATCACGA	-0.0212
GTGCCAAA	-0.0342
TAATAAGA	0.335
ATGGAACC	-0.0661
GCTTAGGA	-0.275
AGCTTTCA	-0.0181
GAAGATAC	0.104
CATACCCG	-0.214
CCCCACGG	-0.36
TTAGTAAA	0.237
ACAAGGAA	0.0558
ACGTTCTA	0.0402
AATAGACC	0.0784
CTCAGATA	0.14
CGGCGTAC	-0.331
ACTCAAGG	0.00183
GTCTACTA	0.153
CCTCACTA	-0.0617

Study 3
Target: Ras GTPase-activating protein-binding protein 1, full length (G3BP1, Homo sapiens, UniProt Q13283)
UniProt Q13283, sequence (whole entry, looked up): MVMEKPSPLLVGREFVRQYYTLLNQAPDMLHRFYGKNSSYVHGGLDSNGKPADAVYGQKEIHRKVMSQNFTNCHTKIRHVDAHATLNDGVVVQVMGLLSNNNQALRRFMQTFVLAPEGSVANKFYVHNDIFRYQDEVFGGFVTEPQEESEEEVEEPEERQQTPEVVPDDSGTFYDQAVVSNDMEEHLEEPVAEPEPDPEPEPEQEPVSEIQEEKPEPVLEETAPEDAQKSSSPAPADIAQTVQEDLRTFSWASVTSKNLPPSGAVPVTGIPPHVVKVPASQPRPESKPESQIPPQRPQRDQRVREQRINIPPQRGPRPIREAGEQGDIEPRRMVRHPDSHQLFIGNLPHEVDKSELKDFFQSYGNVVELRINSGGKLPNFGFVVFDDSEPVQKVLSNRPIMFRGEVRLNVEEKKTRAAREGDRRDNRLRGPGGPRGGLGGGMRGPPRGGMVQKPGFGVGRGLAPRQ
Technique: RNA Bind-n-Seq
Molecule type: RNA
Medium: in vitro
Tested at: 200 nM
Setting: whole 134-nt RNA, ends assumed
Added: 150 mM KCl
Relative to: input library
Direction: higher = stronger binding
All sequences stand within: GGGAGUUCUACAGUCCGACGAUC … UGGAAUUCUCGGGUGUCAAGG
Sequence	log2 enrichment
CACAGACAACACGCACCCACACAGACACAGAGGGAAGGGGUUGGGAUGGGGACAGGGUGCACAGCAAAGCGGGGUAGGACCCCAGCCCCU	1.97
CAAGUCCUGUGCUACACAUCGUAUGUACCGAAUCGGGAAAAAGGGAGGGAAAGGGAAAGUAUUAUGUUACGCCGUUCGGAUCUGCACUUC	0.643
AAGUCCUGUGCUACACAUCGUAUGUACCGAAUCGGUGGUUUUUUUGGAAAAAAAGGAAAGUAUUAUGUUACGCCGUUCGGAUCUGCACUU	-1.1
UUAUCACCAGGACUGCCAUGUUCCCAGGGCUCCAGCCCCUGGAGAGGGAGAGGGCACAUCCUGGGUAUGCCGCCAGUGUGUCUUUGCGAU	-0.649
CCUGUGCUACACAUCGUAUGUACCGAAUCGGGGAAAAAAAGGGGAAAGGGGAAAAAGGGGAAAGUAUUAUGUUACGCCGUUCGGAUCUGC	0.142
AAAAAAAGUGUGUAUUAGGAGGAGAGAGAGGAAAAAAAGAGGAAAGAAGGAAAAAAAAAAGAAUUAAAAAAAAAAAAAAGAAAAACAGAA	-1.02
UGGCCCUGGUGGCAUGCGGGGAGGAAGAGGUGGCCUCAUGGAUCGUGGUGGUCCAGGUGGAAUGUUCAGAGGUGGCCGUGGUGGAGACAG	0.0227
UAAUUUUAGAGGAGGAUCUGAUGGAUAUGGCAGUGGACGUGGAUUUGGGGAUGGCUAUAAUGGGUAUGGAGGAGGACCUGGAGGUGGCAA	0.312
ACCAUGCAGGUGGGCAUCUUUGGGAAGUGGGGCAAGGGGGGGAUAGGGAGGGGGGUAACGCUUUGGGAACAGGUGGUCCCAGGUCGUUUC	0.766

Study 4
Target: TAR DNA-binding protein 43, full length, His tag (TARDBP, Homo sapiens, UniProt Q13148, residues 1-414)
Technique: RNA Bind-n-Seq
Molecule type: RNA
Medium: in vitro
Tested at: 20 nM
Setting: 6-mer, flanks averaged, single round
Added: 150 mM KCl
Relative to: input library
Direction: higher = stronger binding
Sequence	6-mer enrichment (R)
GUUCAG	0.821
ACCCCA	0.652
CCUCAA	0.594
UAAAAA	0.883
GUGGAU	1.4
CGAUCG	0.804
CGGGGU	3.46
GUCAAC	0.677
ACUCUA	0.575
AGCCUG	0.803
GCUUCG	0.79
GCGCGC	1.49
CGGCUC	0.793
AUCAUU	0.55
CAAGCA	0.687
UCCACU	0.571

Study 5
Target: CCNA1, cyclin fold, Cln2 fusion (human)
Technique: yeast growth competition, sequencing
Medium: yeast
Setting: weak parent motif
Relative to: not given
Direction: higher = stronger binding
Starting sequence: CDKN1A docking peptide (human); SKACRRLFGPVDS; partner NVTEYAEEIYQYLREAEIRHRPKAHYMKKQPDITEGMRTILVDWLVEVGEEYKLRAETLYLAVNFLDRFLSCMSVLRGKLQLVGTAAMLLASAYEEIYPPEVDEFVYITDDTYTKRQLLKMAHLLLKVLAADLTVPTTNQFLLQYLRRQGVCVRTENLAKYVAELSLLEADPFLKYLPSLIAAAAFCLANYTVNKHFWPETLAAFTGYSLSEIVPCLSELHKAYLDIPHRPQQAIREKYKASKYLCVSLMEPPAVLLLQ
Substitution	normalised enrichment score
L7D	0.0765
C4N	-0.0265
C4R	1.44
A3E	-0.0363
R6M	0.329
D12R	0.142
K2E	0.0735
K2W	-0.292
C4P	0.402
D12V	0.914
R6F	0.212
R5S	-0.0731
C4A	0.369
R6P	-0.0528
R6I	-0.108
V11F	0.206
K2N	0.666
F8E	-0.54
F8L	-0.345
K2S	0.392

For quick reference, copied from above (study 1):
Sequence	fitted relative affinity
GACAATATCAGTCTCGAGACGTGCTAG	1.19 z-score
TTAGGACTGGGTCTCGGTTTGTGCTAG	1.23 z-score
GACGAACTGAGTATTGAGACGTGCTAG	-0.262 z-score
GACGCTATCCTTCTCCTGACGTGCTAG	0.342 z-score
CTAGTTTTACTTTCTATGTCGTGCTAG	2.56 z-score
TCAGCTATACCACTCTTACTGTGCTAG	0.272 z-score
CTTAGCTTGGGTCTGTGCCTGTGCTAG	-0.668 z-score
GACGGTTTCGGTATCGGTACGTGCTAG	13.8 z-score
CTCTGGGGGGTGGGATGAAGGTGCTAG	4.22 z-score
